Assay results collected from several papers.
Each line is one published result; not all experiments were run side by side. ± marks the error that the study gave.
mrcB: Penicillin-binding protein 1B (mrcB, Escherichia coli K-12, UniProt P02919)
ACE: Angiotensin-converting enzyme (ACE, Homo sapiens, UniProt P12821)
Adhesin FmlH lectin domain: Adhesin FmlH, lectin domain (Escherichia coli, UniProt Q1RBS0)
CDK6 with cyclin D3: Cyclin-dependent kinase 6, with cyclin D3 (CDK6, Homo sapiens, UniProt Q00534)

CCCCc1ccc(N2C(=O)/C(=N\NC(=N)N)c3cc([N+](=O)[O-])ccc32)cc1  inhibition (mrcB; transglycosylation, inhibitor; Escherichia coli; concentration not given, added: dansyl-lipid II): no inhibition
C[C@@H](N)C1CCN(S(=O)(=O)c2cccc3cnccc23)CC1  inhibition (ROCK2 (Homo sapiens, UniProt O75116); cell-free assay, competition with immobilised ligand; 10 µM): > 95%
CC(C)C[C@H](NC(=O)[C@H](CCCNC(=N)N)NC(=O)CNC(=O)[C@H](CCC(=O)O)NC(=O)[C@@H]1CCCN1C(=O)[C@H](Cc1c[nH]cn1)NC(=O)[C@@H](NC(=O)[C@@H](N)C(C)C)C(C)C)C(=O)O  inhibition (ACE; enzyme activity, inhibitor, HPLC; 1330 µg/mL): 53.3%
N#Cc1ccc(O[C@@H]2O[C@H](CO)[C@H](O)[C@H](O)[C@H]2O)cc1  inhibition (Adhesin FmlH lectin domain; binding to desialylated mucin, ELISA competition; UPEC UTI89; 100 µM): 86%
CC(C)Cn1cc(-c2ccnc(Nc3ccc(C(=O)Nc4ccccc4N)cc3)n2)nn1  inhibition (CDK6 with cyclin D3; enzyme activity, inhibitor, TR-FRET; 5 µM): 3.55%
Cc1nn(-c2ccc(S(=O)(=O)N[C@H](CO)CC(C)C)cc2)c2nn3nnnc3nc12  tail DNA (PC-3; DNA damage, alkaline comet; 2 µM, 24 h): 58 ± 6.96%
N=C(N)c1ccc(-c2ccc(-c3cccs3)o2)nc1  viability (Salmonella typhimurium; liquid broth OD; TA1535; 50 µM, 15 h; reference: growth): 92.5 ± 8%
CC(=O)[O-].O.O.O.O.[Ni+2].[O-]c1ccc(Br)cc1C=NCCN1CCOCC1  Gibbs free energy change (Albumin (ALB, Bos taurus, UniProt P02769); UV absorption titration): -5.79 kcal/mol
COC(CO)c1ccc(O)c(O)c1 (centres unmarked)  inhibition (alpha-glucosidase Saccharomyces cerevisiae; 1000 µM, added: sucrose): < 10%
CCCCCCN1C(=O)/C(=N\NC(=N)N)c2cc(C)ccc21  inhibition (mrcB; enzyme activity, inhibitor, HPLC; 50 µM): 0%
CC(=O)NCC(=O)N[C@@H](CC(=O)O)C(=O)N[C@@H](Cc1ccc(O)cc1)C(=O)N[C@@H](CO)C(=O)N[C@@H](Cc1c[nH]cn1)C(=O)N[C@H]1CSSC[C@@H](C(=O)N[C@H](C(=O)N[C@@H](Cc2ccc(O)cc2)C(=O)N2CCC[C@H]2C(=O)N[C@@H](CC(=O)O)C(=O)N2CCC[C@H]2C(=O)N[C@@H](CCC(=O)O)C(=O)NCC(=O)NCC(=O)NCC(N)=O)[C@@H](C)O)NC(=O)[C@H](CCCCN)NC(=O)[C@H](Cc2c[nH]c3ccccc23)NC(=O)[C@H](Cc2c[nH]c3ccccc23)NC(=O)[C@@H]2CCCN2C(=O)[C@H](Cc2ccc(O)cc2)NC(=O)[C@H](Cc2ccc(O)cc2)NC(=O)[C@H](CCCNC(=N)N)NC(=O)[C@H](CC(C)C)NC(=O)[C@@H]2CCCN2C(=O)[C@H](CO)NC1=O  inhibition (ACE; 10 µM): 15 ± 2%
C[n+]1cn([C@@H]2O[C@H](COP(=O)(O)OP(=O)([O-])OP(=O)(O)O)[C@@H](O)[C@H]2O)c2nc(N)nc(O)c21  IC50 (cap-dependent translation, inhibitor; rabbit reticulocyte lysate; preincubated 60 min in lysate): 7.57 ± 0.27 µM
CC(C)Cn1cc(-c2ccnc(Nc3ccc(OCCCCCCC(=O)NO)cc3)n2)nn1  inhibition (CDK6 with cyclin D3; enzyme activity, inhibitor, TR-FRET; 50 nM): 8.65%
OC[C@H]1O[C@@H](Oc2cccc3ccccc23)[C@H](O)[C@@H](O)[C@H]1O  inhibition (Adhesin FmlH lectin domain; binding to desialylated mucin, ELISA competition; UPEC UTI89; 100 µM): 46%
C=CC(C)(C)c1[nH]c2ccccc2c1C1=C(O)C(=O)C(c2c[nH]c3c(CC=C(C)C)cccc23)=C(O)C1=O  inhibition (Trypanothione synthetase (Trypanosoma brucei brucei, UniProt Q586P2); trypanothione synthetase activity; 25 µM): 31 ± 7%
NS(=O)(=O)Nc1ncnc(OCCOc2ncc(Br)cn2)c1-c1ccc(Br)cc1  Km (Eadie-Hofstee plot, item: compound formation; male Sprague-Dawley rat, liver microsomes; 1500 mg/kg daily, 4 weeks): 2.2 ± 0.2 µM
CCCCc1ccc(N2C(=O)/C(=N\NC(=N)N)c3cc(F)ccc32)cc1  inhibition (mrcB; enzyme activity, inhibitor, HPLC; 50 µM): 14%
CC(C)(C)CCN1C[C@@H]2[C@@H](CNC(=O)c3cc(Cl)cc(Cl)c3)[C@@H]2C1.Cl  inhibition (Voltage-dependent L-type calcium channel subunit alpha-1F (Homo sapiens, UniProt O60840, M1129A); calcium current, whole-cell patch clamp; HEK-293T cells; 10 µM; reference: wild type): no effect
CC(=O)Nc1ccc(F)cc1-c1ccncc1  inhibition (Uridine nucleoside ribohydrolase (Trichomonas vaginalis, UniProt A2FTT0); enzyme activity, jump-dilution 19F NMR; 200 µM, 10-fold dilution): 54%
CC(C)C[C@H](NC(=O)[C@@H]1CCCN1C(=O)[C@@H]1CCCN1C(=O)[C@H](CC(N)=O)NC(=O)[C@@H](N)Cc1ccc(Cl)c(Cl)c1)C(=O)N[C@@H](Cc1c[nH]cn1)C(=O)N[C@@H](CO)C(=O)N[C@H](C(=O)N[C@@H](C)C(=O)O)[C@@H](C)OP(=O)(O)O  inhibition (PLK2 (Homo sapiens, UniProt Q9NYY3); enzyme activity, inhibitor; 10 µM): 8.21%
COc1ccccc1O[C@@H]1O[C@H](CO)[C@H](O)[C@H](O)[C@H]1O  inhibition (Adhesin FmlH lectin domain; binding to desialylated mucin, ELISA competition; UPEC UTI89; 100 µM): 97%
CC(C)Oc1cc(NC(=O)[C@H](Cc2ccccc2)NC(=O)c2ccc(N)c(OCc3ccccc3)c2)ccc1C(=O)NCC(=O)O  inhibition (Eukaryotic translation initiation factor 4E, with eIF4G (EIF4E, Homo sapiens, UniProt P06730); fluorescence anisotropy competition; concentration not given): no inhibition
[64Cu+2].c1cnc(CNCc2ccc(CN3CCCN4CCNCCCN(CC4)CC3)cc2)nc1  tissue uptake (CXCR4; NOD/SCID mouse, U87 xenografts, small intestine; 90 min, added: AMD3465 25 mg/kg sc): 31.5 ± 31 %ID/g
Cc1cc(-c2ccc(NC(=O)[C@H](CCCCNC(=O)CCOCCOCCC(=O)N[C@H](Cc3ccccc3)C(=O)N[C@H]3CSSC[C@@H](C(=O)N[C@H](C(=O)O)[C@@H](C)O)NC(=O)[C@H]([C@@H](C)O)NC(=O)[C@H](CCCCN)NC(=O)[C@@H](Cc4c[nH]c5ccccc45)NC(=O)[C@H](Cc4ccc(O)cc4)NC3=O)NC(=O)CN3CCN(CC(=O)O)CCN(CC(=O)O)CCN(CC(=O)O)CC3)c(C)c2)ccc1N=Nc1ccc2c(S(=O)(=O)O)cc(S(=O)(=O)O)c(N)c2c1O [lutetium-177 labelled]  residence time ratio (patients with metastatic NETs, lymph node metastases; reference: cpd over 177Lu-EB-TATE): 2.3 fold
COc1cc(C(=O)NC2CCC(N3CCN(CC4CCC5(CCCC5)C4)CC3)CC2)c(F)cc1Nc1ncc2c(n1)N(C1CCCC1(F)F)CC(F)(F)C(=O)N2C (centres unmarked)  inhibition (CDK6 (Homo sapiens, UniProt Q00534); cell-free assay, TR-FRET; 10 µM): 4.18%
Cn1c(=O)oc2ccc(-c3ccc(CC(C#N)NC(=O)C4CNCCCO4)c(F)c3)cc21 (centres unmarked)  subjects with TEAE (item: total protein decreased; human; 15 mg single dose, fasted): 0%
Cc1c(C(=O)Nc2ccn(C)n2)ncn1Cc1cccc(C(F)(F)F)c1  pS129-positive puncta (immunohistochemistry, item: human αS aggregates; human WT αS transgenic mouse, cortex; dose not given; reference: placebo): decreased
O=C(CCCCCCN1CCN(c2ccc(Nc3ncc(F)c(-c4cn(C5CCCC5)nn4)n3)cc2)CC1)NO  inhibition (CDK6 with cyclin D3; enzyme activity, inhibitor, TR-FRET; 50 nM): 9.49%
[64Cu+2].c1ccc(CNCc2ccc(CN3CCCN4CCNCCCN(CC4)CC3)cc2)nc1  tissue uptake (CXCR4; NOD/SCID mouse, U87 and U87-stb-CXCR4 xenografts, spleen; iv, 90 min, ex vivo, added: AMD3465 25 mg/kg sc before tracer): 3.95 ± 0.61 %ID/g
C#CCSc1nc(Sc2nnnn2-c2ccccc2)c2nnn(Cc3ccccc3Cl)c2n1  inhibition (CDK6 with cyclin D3; enzyme activity, inhibitor; 10 µM): < 15%
CN1CCN(Cc2ccc(-c3ccc(CO[C@H]4CCC[C@@H]4NC(=O)c4cc(-c5cnn(C)c5)cnc4N)cc3)cc2)CC1  inhibition (CHEK2 (Homo sapiens, UniProt O96017); enzyme activity, inhibitor; 0.1 µM): 55.2%
N#C/C(=C\c1ccc(O)c(O)c1)C(=O)c1ccc(O)c(O)c1  inhibition (Genome polyprotein, NS3 helicase domain (Hepatitis C virus genotype 1b, UniProt Q9WMX2); DNA binding, fluorescence polarization; 100 µM, added: Cy5-dT15 DNA): > 60%
O=Cc1c(O)ccc2ccccc12  log2 fold change (HUVEC; RNA sequencing, item: IL13RA2; 75 µM, 24 h; reference: DMSO): 5.28
CNc1ccccc1C(=O)O[C@H]1C[C@H](n2cnc3c(N)ncnc32)O[C@@H]1COP(=O)(O)OP(=O)(O)O  dissociation rate constant (Unconventional myosin-Va (Gallus gallus, UniProt Q02440, D297C/G292C/I296C/S293C/V295G); stopped-flow FRET; 4 °C, added: MgCl2 10 mM): 0.68 ± 0.01 s⁻¹
O=[N+]([O-])c1ccc(O[C@@H]2O[C@H](CO)[C@H](O)[C@H](O)[C@H]2O)cc1  inhibition (Adhesin FmlH lectin domain; binding to desialylated mucin, ELISA competition; UPEC UTI89; 100 µM): 78%
CC(C)Cn1cc(-c2ccnc(Nc3ccc(N4CCN(CCCCCCC(=O)NO)CC4)cc3)n2)nn1  inhibition (CDK6 with cyclin D3; enzyme activity, inhibitor, TR-FRET; 5 µM): 63.4%
NCc1ccc(NC(=O)c2ccc3ccccc3c2O)cc1  inhibition (ST14 (Homo sapiens, UniProt Q9Y5Y6); enzyme activity, inhibitor; 10 µM): < 20%
CC1(C)SC(C(CCc2ccccc2)B(O)O)N[C@H]1C(=O)O (some centres unmarked)  inhibition (D-alanyl-D-alanine carboxypeptidase DacC (dacC, Bacillus subtilis, UniProt P39844); enzyme activity, inhibitor; concentration not given): no inhibition

Excerpt of the above:
COc1ccccc1O[C@@H]1O[C@H](CO)[C@H](O)[C@H](O)[C@H]1O  inhibition (Adhesin FmlH lectin domain; binding to desialylated mucin, ELISA competition; UPEC UTI89; 100 µM): 97%
CC(C)Oc1cc(NC(=O)[C@H](Cc2ccccc2)NC(=O)c2ccc(N)c(OCc3ccccc3)c2)ccc1C(=O)NCC(=O)O  inhibition (Eukaryotic translation initiation factor 4E, with eIF4G (EIF4E, Homo sapiens, UniProt P06730); fluorescence anisotropy competition; concentration not given): no inhibition
[64Cu+2].c1cnc(CNCc2ccc(CN3CCCN4CCNCCCN(CC4)CC3)cc2)nc1  tissue uptake (CXCR4; NOD/SCID mouse, U87 xenografts, small intestine; 90 min, added: AMD3465 25 mg/kg sc): 31.5 ± 31 %ID/g
Cc1cc(-c2ccc(NC(=O)[C@H](CCCCNC(=O)CCOCCOCCC(=O)N[C@H](Cc3ccccc3)C(=O)N[C@H]3CSSC[C@@H](C(=O)N[C@H](C(=O)O)[C@@H](C)O)NC(=O)[C@H]([C@@H](C)O)NC(=O)[C@H](CCCCN)NC(=O)[C@@H](Cc4c[nH]c5ccccc45)NC(=O)[C@H](Cc4ccc(O)cc4)NC3=O)NC(=O)CN3CCN(CC(=O)O)CCN(CC(=O)O)CCN(CC(=O)O)CC3)c(C)c2)ccc1N=Nc1ccc2c(S(=O)(=O)O)cc(S(=O)(=O)O)c(N)c2c1O [lutetium-177 labelled]  residence time ratio (patients with metastatic NETs, lymph node metastases; reference: cpd over 177Lu-EB-TATE): 2.3 fold
COc1cc(C(=O)NC2CCC(N3CCN(CC4CCC5(CCCC5)C4)CC3)CC2)c(F)cc1Nc1ncc2c(n1)N(C1CCCC1(F)F)CC(F)(F)C(=O)N2C (centres unmarked)  inhibition (CDK6 (Homo sapiens, UniProt Q00534); cell-free assay, TR-FRET; 10 µM): 4.18%
Cn1c(=O)oc2ccc(-c3ccc(CC(C#N)NC(=O)C4CNCCCO4)c(F)c3)cc21 (centres unmarked)  subjects with TEAE (item: total protein decreased; human; 15 mg single dose, fasted): 0%
